Results pooled from the literature.
Parts stem from different laboratories: compare values within a part only.
Chain of UniProt P48736 (whole entry, looked up): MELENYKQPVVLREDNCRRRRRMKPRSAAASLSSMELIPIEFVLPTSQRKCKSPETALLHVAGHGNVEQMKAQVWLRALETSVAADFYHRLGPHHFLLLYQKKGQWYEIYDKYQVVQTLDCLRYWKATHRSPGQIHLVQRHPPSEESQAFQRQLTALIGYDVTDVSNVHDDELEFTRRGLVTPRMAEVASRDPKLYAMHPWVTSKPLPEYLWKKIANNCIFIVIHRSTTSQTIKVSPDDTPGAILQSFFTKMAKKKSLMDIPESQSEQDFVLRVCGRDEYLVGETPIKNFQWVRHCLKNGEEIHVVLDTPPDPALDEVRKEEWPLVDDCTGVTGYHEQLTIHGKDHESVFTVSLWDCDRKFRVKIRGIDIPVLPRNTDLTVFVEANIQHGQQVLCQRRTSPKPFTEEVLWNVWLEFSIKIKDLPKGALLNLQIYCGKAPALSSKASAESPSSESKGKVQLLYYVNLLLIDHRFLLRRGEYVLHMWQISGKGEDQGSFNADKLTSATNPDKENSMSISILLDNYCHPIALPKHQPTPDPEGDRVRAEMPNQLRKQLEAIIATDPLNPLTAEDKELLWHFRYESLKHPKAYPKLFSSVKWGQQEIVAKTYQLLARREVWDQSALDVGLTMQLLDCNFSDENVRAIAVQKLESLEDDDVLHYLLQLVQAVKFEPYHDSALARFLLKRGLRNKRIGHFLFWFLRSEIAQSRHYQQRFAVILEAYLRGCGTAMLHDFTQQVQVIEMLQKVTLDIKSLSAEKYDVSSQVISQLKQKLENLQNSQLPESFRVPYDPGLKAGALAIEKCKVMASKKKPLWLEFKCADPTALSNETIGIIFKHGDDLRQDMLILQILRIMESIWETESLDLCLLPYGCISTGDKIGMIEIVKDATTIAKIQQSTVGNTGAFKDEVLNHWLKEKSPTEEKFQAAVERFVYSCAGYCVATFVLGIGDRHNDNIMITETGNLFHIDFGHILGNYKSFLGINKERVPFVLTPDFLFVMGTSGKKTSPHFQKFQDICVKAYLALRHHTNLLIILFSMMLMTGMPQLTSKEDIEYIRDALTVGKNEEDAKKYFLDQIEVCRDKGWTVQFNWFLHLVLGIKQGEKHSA

Set 1 — method: aptamer microarray, sandwich; form: DNA with 2'F-ANA; sample: in vitro; concentration: 200 nM; together with: Cy3 exosite-II aptamer, 400 nM; reading: higher = stronger binding; endpoint: mean fluorescence intensity; oligonucleotide: GGTTGGTGTGGTTGG
Target: Prothrombin, mature alpha-thrombin (F2, Homo sapiens, UniProt P00734)
Setting: whole 15-mer aptamer, many near background
2'F-ANA at 1 2 3 7 10 11 12 14: 56.6 a.u.
2'F-ANA at 2 4 5 6 8 13 14: 52.5 a.u.
2'F-ANA at 1 3 5 7 8 10 11 13: 59.1 a.u.
2'F-ANA at 3 5 6 7 8 9 10 15: 66.6 a.u.
2'F-ANA at 2 3 4 6 7 8 11 12 14 15: 295 a.u.
2'F-ANA at 5 6 7 9 12 14: 47 a.u.
2'F-ANA at 3 7 8 9 10 11 14 15: 405 a.u.
2'F-ANA at 1 2 5 7 13 15: 54.1 a.u.

Set 2 — read-out: enzyme activity; action: inhibitor; concentration: 0.5 µM; relative to: control; endpoint: remaining activity
Target: NUAK family SNF1-like kinase 1 (NUAK1, Homo sapiens, UniProt O60285)
Chain of UniProt O60285 (whole entry, looked up): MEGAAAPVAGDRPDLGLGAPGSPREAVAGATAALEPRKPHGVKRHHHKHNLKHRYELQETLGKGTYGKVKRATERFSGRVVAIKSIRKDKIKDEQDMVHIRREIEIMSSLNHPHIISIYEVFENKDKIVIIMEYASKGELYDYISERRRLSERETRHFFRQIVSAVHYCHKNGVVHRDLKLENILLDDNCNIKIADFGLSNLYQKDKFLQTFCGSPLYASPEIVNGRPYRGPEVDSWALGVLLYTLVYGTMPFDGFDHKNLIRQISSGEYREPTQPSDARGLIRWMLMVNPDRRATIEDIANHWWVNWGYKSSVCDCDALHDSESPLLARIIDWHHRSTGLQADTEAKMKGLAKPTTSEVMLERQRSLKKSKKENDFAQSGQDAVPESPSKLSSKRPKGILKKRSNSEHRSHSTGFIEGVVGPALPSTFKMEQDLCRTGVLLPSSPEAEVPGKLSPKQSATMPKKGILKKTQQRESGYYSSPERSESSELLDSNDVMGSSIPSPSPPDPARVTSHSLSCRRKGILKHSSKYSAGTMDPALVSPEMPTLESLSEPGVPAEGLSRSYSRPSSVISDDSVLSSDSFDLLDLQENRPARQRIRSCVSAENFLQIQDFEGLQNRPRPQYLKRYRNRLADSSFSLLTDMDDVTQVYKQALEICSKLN
C[C@@H]1CCN(C(=O)CC#N)C[C@@H]1N(C)c1ncnc2[nH]ccc12: 71.2%
O=C(NC(NC(=S)Nc1ccc(F)c([N+](=O)[O-])c1)C(Cl)(Cl)Cl)C(c1ccccc1)c1ccccc1 (centres unmarked): 95.3%
c1ccc(-c2cnc(Nc3ccc(OCCN4CCCC4)cc3)s2)cc1: 56.4%
N#Cc1c(NC(=O)c2cccc3ccccc23)sc2c1CCCC2: 97.3%

Set 3 — method: RNA Bind-n-Seq; form: RNA; sample: in vitro; concentration: not given; relative to: input RNA pool; reading: higher = stronger binding; endpoint: bound/input enrichment
Target: RING finger protein unkempt homolog, zinc fingers 1-6, GST-SBP tag (UNK, Homo sapiens, UniProt Q9C0B0, residues 30-357)
Chain of UniProt Q9C0B0 (30-357, looked up): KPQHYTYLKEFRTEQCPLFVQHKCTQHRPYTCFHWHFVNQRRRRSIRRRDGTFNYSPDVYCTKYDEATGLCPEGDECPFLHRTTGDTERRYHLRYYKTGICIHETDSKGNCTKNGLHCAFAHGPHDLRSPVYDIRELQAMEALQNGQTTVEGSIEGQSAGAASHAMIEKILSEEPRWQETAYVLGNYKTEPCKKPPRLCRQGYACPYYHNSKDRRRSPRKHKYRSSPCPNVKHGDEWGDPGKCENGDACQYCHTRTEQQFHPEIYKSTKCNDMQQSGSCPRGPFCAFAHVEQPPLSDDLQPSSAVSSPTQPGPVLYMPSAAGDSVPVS
Setting: RNA with constant flanks, human-mouse chimeric sites, ends assumed
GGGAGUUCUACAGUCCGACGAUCGUGACAGGUGUUAAGAUUUCCCCUCAGAAAAGAACUGCAGUAGUCACCAUAAUUCCAUCUGUGGUGAGUGCCAGUCAGAUUGUGGAGCUGGUCCCAGACCUCAGUUUAGACAUGGGAACUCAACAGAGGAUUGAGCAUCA: 0.349 ratio
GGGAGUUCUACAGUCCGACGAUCUUCAAAGAAAAGGGCAGCUGUGUCAUUUCAUAAGUAACUCUGGGGGAUAAGUGGAAGGUUCUUUUGUUUAAUUUUCCCCCAAAUGAAACCAACAUGCGUGUUGAAGAACUGAGAAAAAAUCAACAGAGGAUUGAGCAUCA: 0.205 ratio
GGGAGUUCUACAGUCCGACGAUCAAAGAACCUCUCUCUGAAGAAGAGGAAGAAGACAAUGAUGAUGUUGAACCCAUUUCUGAAUUUAGAUUUGUGCCCAGUGAUAAGUCAGCAUUGGAGGCGAUGUUCACAGCAAUGUGUGAGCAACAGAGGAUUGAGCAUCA: 1.21 ratio
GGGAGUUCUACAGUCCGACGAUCGUGACAGGUGUUAAGAUUUCCCCUCAGCAAAGAAGUGCAGUAGUCACAAUAAUCCCUUCUGUGGUGAGUGCCAGUCAGAUUGUGGAGCUGGUCCCAGACCUCAGUUUAGACAUGGGAACUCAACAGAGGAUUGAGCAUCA: 0.315 ratio
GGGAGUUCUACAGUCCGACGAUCGUCAACAGCUGCCUCAACCCCAUCCUCUAUGCUUUCUUGGAUGAGAACUUCAAGGCCUGCUUCCGCAAGUUCUGCUGUGCAUCUGCCCUGCGCCGGGACGUGCAGGUGUCUGACCGCGUGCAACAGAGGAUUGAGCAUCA: 0.394 ratio
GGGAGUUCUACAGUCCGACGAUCGCAAAGGAUGAUGAGGCGGCAGCUGUUGCCCUUUCCUCCCUGAUUCAUGCUUUGGAUGAGUUAAACAUGGUCGCCAUCGUCCGAUAUGCUUAUGACAAAAGAGCUAAUCCUCAAGUUGGUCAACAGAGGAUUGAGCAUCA: 0.149 ratio
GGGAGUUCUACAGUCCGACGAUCUCUGAGGUACCACUGAAGAGACCUUAAAAGAAUCAUUUGAGGGCUCUCGUUCGGGCAGAAUAGUCACUGAUCGGGAAACUGGUUCUUCCAAAGGGUUUGGUUUUGUAGACUUUAAUAGUGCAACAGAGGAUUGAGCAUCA: 0.78 ratio
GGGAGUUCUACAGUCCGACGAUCGAUCAUGAACCACCAUCAGAAAUGAAGAUGAGAUUACCCAGACGAGCCAAAACAGCUGCGCUACAGAAAAGUAAACUUAACCUUGCACCAAUUUCUCAAUGAAGAUCAAGUUAAGAGAGCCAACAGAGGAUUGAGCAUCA: 0.347 ratio

Single results of other studies
Cn1cncc1[C@@](O)(COc1ccc(C#N)cc1-c1ccc(OC(F)(F)F)cc1)c1ccc(C#N)cc1
cells with altered tubulin phenotype (HEK293T; high-content imaging; 10 µM, 24 h): 95%

CC(C)n1cnc(-c2ccc(F)cc2)c1-c1ncc(C(=O)Nc2ccc(N3CCN(C)CC3)cc2)[nH]1
patients with Infection TEAE (phase 2a clinical trial; patients with idiopathic pulmonary fibrosis; 30 mg once daily): 0%

C[C@H](NC(=O)c1cnc2n1[C@](C)(Cc1ccc(C#N)cc1)C(=O)N2c1cc(Cl)c(F)c(Cl)c1)C(=O)NC1(c2ccccn2)CC1
remaining binding (PIK3CG (Homo sapiens, UniProt P48736); cell-free assay, competition with immobilised ligand; 1 µM): 86%

Excerpt of the above (set 3):
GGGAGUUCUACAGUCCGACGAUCGCAAAGGAUGAUGAGGCGGCAGCUGUUGCCCUUUCCUCCCUGAUUCAUGCUUUGGAUGAGUUAAACAUGGUCGCCAUCGUCCGAUAUGCUUAUGACAAAAGAGCUAAUCCUCAAGUUGGUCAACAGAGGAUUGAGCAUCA: 0.149 ratio
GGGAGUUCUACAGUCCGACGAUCUUCAAAGAAAAGGGCAGCUGUGUCAUUUCAUAAGUAACUCUGGGGGAUAAGUGGAAGGUUCUUUUGUUUAAUUUUCCCCCAAAUGAAACCAACAUGCGUGUUGAAGAACUGAGAAAAAAUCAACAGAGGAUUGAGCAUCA: 0.205 ratio
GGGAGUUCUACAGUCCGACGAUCGAUCAUGAACCACCAUCAGAAAUGAAGAUGAGAUUACCCAGACGAGCCAAAACAGCUGCGCUACAGAAAAGUAAACUUAACCUUGCACCAAUUUCUCAAUGAAGAUCAAGUUAAGAGAGCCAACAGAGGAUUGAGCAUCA: 0.347 ratio
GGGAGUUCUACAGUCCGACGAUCAAAGAACCUCUCUCUGAAGAAGAGGAAGAAGACAAUGAUGAUGUUGAACCCAUUUCUGAAUUUAGAUUUGUGCCCAGUGAUAAGUCAGCAUUGGAGGCGAUGUUCACAGCAAUGUGUGAGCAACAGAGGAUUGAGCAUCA: 1.21 ratio
